Measured values collected from several papers.
Compare with care: the assays were run in different laboratories. ± gives the spread as reported.

Compound | test | test system | conditions | quantity | result
CC1=CC(C)=[O+][Pt-2]([NH3+])([NH3+])[O]1.CC1=CC(C)=[O+][Pt-2]([NH3+])([NH3+])[O]1.O=S(=O)([O-])[O-] (stereo not drawn) | 1H NMR | PBS | up to 25 d, pH 7.4, 37 °C | chemical stability | no effect
COc1ccc(S(=O)(=O)N(C)/N=C/c2ccc(C#N)cc2)cc1OC |  | buffer | pH 2, 37 °C | chemical stability | stable
CC1=CC(c2ccccc2)=[O+][Pt-2]([NH3+])([NH3+])[O]1.O=[N+]([O-])[O-] (stereo not drawn) | 1H NMR | PBS | up to 25 d, pH 7.4, 37 °C | chemical stability | no effect
C[C@H](N)C(=O)OCCOCn1cnc2c(=O)[nH]c(N)nc21 |  | DPBS buffer | 0.02 mM, pH 7.4, 34 °C | chemical hydrolysis half-life | 2.9 ± 0.1 h
CCC(=O)NCc1cc(C(=O)NCCN2CCC(N3CCC(n4c(=O)[nH]c5ccccc54)CC3)CC2)cc(C(=O)NCCN2CCN(CCCCC3CCN(CC(=O)N4c5ccccc5NC(=O)c5ccccc54)CC3)CC2)c1 |  | PBS | 100 µM, 48 h, pH 7.4, 22 °C | chemical stability | stable
Nc1nc2c(ncn2COCCOC(=O)[C@@H](N)CO)c(=O)[nH]1 |  | DPBS buffer | 0.02 mM, pH 7.4, 34 °C | chemical hydrolysis half-life | 29 ± 3 h
NC(=O)CN(Cc1ccccc1)C(=O)CN(CCOc1cc(-c2ccccn2)nc(-c2ccccn2)c1)C(=O)CNCc1ccccn1 | UV-Vis | PBS | 100 µM, up to 72 h, pH 7.4, 37 °C | chemical stability | stable
C[C@@H](O)[C@H](NC(=O)[C@@H](NC(=O)[C@@H](N)CCCCN)[C@@H](C)O)C(=O)N[C@@H](CCCCN)C(=O)N[C@@H](CO)C(=O)O |  | 10 mM HEPES buffer | pH 7.4 | chemical stability | stable
COC(=O)c1ccc(/C=N/N(C)S(=O)(=O)c2ccc(OC)c(OC)c2)cc1 |  | buffer | pH 2, 37 °C | chemical stability | stable

Excerpt of the above:
Compound | test | test system | conditions | quantity | result
CC1=CC(c2ccccc2)=[O+][Pt-2]([NH3+])([NH3+])[O]1.O=[N+]([O-])[O-] (stereo not drawn) | 1H NMR | PBS | up to 25 d, pH 7.4, 37 °C | chemical stability | no effect
